Experimental data pooled from the literature.
Compare with care: the assays were run in different laboratories. pIC50: −log10 of the molar value.
Potassium/sodium hyperpolarization-activated cyclic nucleotide-gated channel 1: Potassium/sodium hyperpolarization-activated cyclic nucleotide-gated channel 1 (Homo sapiens, UniProt O60741)
Sequence of UniProt O60741 (whole entry, looked up): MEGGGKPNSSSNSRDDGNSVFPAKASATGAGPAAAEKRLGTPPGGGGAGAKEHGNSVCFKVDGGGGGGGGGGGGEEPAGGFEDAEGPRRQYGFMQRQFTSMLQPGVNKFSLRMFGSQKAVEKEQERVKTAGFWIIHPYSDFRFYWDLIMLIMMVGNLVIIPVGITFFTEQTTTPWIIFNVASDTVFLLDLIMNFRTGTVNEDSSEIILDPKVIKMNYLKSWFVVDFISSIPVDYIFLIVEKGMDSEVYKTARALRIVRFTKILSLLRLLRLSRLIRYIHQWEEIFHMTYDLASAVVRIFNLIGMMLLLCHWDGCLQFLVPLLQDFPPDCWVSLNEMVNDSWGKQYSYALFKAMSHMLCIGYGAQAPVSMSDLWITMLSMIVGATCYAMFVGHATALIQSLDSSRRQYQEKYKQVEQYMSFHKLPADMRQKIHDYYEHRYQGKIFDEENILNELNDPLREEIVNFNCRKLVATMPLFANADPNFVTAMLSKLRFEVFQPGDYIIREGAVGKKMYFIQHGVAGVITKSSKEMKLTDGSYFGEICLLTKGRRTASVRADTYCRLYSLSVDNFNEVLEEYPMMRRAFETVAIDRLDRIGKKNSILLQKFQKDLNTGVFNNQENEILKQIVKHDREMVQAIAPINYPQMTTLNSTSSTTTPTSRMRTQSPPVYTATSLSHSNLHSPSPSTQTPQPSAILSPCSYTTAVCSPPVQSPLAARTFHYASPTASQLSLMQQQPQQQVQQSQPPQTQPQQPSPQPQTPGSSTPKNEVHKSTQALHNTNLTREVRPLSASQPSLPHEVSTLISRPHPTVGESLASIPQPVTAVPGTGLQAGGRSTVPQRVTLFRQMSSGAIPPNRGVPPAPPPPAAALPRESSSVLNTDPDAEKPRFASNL
4'-phosphopantetheinyl transferase PptT: 4'-phosphopantetheinyl transferase PptT (Mycobacterium tuberculosis, UniProt O33336)
Sequence of UniProt O33336 (whole entry, looked up): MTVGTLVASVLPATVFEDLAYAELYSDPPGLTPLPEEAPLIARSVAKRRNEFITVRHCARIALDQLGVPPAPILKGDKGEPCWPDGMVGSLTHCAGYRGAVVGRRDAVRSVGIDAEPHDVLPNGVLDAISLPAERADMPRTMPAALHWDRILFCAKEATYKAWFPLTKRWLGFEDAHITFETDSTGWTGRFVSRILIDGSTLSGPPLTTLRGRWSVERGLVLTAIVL
Sequence of UniProt Q86Y07 (whole entry, looked up): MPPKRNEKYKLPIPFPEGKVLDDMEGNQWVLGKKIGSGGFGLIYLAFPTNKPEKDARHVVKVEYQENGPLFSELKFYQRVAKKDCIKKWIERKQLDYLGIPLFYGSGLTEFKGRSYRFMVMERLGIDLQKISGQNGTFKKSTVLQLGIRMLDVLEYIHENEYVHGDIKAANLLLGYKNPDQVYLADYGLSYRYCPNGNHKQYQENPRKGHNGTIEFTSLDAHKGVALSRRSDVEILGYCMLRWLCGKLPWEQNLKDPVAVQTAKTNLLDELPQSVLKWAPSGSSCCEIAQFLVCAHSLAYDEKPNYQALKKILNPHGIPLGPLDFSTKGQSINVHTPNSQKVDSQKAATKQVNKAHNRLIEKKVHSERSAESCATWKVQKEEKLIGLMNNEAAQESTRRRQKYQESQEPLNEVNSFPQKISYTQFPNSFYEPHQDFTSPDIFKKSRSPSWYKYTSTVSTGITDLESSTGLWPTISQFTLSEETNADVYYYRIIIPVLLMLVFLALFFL
Sequence of UniProt P27815 (whole entry, looked up): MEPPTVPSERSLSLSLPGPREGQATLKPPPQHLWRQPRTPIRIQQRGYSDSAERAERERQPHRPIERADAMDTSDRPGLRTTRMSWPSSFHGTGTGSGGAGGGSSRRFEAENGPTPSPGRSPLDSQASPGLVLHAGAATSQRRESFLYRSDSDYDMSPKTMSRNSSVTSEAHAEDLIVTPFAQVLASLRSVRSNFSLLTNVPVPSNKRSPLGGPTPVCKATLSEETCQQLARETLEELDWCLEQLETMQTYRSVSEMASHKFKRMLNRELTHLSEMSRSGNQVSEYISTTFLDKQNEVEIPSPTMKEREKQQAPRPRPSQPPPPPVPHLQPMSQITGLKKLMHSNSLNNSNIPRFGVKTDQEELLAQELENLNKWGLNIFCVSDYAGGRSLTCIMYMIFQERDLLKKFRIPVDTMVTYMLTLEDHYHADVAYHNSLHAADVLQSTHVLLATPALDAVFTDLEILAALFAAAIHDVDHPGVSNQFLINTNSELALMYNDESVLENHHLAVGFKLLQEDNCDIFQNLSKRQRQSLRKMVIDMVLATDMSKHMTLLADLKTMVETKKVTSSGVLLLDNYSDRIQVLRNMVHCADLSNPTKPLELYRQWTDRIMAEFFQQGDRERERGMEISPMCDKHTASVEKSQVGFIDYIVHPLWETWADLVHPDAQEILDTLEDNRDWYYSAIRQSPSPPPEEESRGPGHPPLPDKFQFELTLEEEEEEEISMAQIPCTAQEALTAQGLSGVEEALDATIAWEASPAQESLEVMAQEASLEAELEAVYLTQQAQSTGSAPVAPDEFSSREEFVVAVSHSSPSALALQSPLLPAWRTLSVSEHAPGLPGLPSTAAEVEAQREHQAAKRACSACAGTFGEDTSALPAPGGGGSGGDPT
Sequence of UniProt P48736 (whole entry, looked up): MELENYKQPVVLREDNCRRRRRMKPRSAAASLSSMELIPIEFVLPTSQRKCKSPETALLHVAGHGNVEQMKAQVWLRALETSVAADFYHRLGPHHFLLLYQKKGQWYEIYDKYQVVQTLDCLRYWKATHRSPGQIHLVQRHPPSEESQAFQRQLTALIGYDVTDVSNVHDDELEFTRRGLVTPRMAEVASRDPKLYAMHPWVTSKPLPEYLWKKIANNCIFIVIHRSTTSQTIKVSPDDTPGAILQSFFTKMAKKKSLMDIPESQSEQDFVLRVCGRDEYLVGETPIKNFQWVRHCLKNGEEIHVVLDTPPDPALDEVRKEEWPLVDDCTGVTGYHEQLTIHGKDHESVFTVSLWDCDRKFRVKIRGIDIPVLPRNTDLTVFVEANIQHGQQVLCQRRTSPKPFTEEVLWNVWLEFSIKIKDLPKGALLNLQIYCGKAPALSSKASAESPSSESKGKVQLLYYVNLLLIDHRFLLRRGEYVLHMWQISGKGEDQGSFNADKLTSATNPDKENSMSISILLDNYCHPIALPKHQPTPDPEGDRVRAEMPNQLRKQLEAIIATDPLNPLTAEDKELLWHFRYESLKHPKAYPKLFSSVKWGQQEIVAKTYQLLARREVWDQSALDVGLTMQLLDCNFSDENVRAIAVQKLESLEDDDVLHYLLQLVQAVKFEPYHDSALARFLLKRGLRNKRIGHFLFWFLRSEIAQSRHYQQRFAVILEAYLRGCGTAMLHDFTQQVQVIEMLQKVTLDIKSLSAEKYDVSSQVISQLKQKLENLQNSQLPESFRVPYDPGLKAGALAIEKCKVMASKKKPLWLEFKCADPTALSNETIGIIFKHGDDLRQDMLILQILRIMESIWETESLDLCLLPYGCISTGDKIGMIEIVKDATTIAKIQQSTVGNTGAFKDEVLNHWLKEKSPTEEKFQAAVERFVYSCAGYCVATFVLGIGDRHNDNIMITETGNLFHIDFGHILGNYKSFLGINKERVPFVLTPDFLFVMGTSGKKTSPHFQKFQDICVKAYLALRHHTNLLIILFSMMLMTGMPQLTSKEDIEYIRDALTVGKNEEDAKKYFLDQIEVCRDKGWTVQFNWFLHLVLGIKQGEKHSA
Sequence of UniProt Q01959 (whole entry, looked up): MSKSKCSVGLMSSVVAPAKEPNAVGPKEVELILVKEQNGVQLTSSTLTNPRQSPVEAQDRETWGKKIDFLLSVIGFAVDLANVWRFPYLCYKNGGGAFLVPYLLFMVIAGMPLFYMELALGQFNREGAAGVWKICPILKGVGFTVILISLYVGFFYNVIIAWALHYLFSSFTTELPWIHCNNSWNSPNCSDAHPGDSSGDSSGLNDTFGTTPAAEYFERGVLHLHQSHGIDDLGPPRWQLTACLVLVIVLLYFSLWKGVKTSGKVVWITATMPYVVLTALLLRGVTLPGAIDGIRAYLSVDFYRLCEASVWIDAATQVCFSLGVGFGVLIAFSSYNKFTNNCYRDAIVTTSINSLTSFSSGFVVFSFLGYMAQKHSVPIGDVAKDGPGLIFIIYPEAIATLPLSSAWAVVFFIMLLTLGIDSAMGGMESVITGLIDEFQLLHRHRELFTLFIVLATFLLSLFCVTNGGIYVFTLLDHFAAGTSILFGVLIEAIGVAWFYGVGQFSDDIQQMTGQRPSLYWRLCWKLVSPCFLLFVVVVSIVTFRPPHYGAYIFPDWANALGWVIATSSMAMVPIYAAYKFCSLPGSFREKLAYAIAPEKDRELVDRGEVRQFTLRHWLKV
Sequence of UniProt Q9NSA0 (whole entry, looked up): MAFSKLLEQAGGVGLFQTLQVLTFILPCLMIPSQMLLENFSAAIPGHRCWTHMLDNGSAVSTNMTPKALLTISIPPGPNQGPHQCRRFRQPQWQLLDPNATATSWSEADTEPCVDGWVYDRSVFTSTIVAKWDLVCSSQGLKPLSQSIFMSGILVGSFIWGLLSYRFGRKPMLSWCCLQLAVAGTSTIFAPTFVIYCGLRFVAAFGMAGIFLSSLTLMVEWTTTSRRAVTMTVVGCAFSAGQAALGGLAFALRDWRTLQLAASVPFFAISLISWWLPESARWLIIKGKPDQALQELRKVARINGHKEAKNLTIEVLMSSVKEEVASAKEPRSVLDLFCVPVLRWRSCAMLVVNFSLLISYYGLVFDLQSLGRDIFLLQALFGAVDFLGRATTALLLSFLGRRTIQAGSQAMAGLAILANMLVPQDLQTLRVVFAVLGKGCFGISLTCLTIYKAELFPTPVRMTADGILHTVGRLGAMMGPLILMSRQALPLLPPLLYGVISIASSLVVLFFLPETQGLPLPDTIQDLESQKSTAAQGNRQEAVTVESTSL

Cc1nc(Nc2ccc(CC(=O)O)cc2)nc(Nc2ccc(F)c(C(F)(F)F)c2)c1C  inhibition (PDE4A (Homo sapiens, UniProt P27815); enzyme activity, inhibitor, FP; 200 µM): 36%
Cn1c(=O)c2[nH]cnc2n(C)c1=O  inhibition (Potassium/sodium hyperpolarization-activated cyclic nucleotide-gated channel 1; ion current, inhibitor; 3 µM): 14%
CN1CCC[C@H]1c1cccnc1  inhibition (DRD5 (Homo sapiens, UniProt P21918); ligand displacement; 50 µM): -0.77%
N.N.[Cl][Pt][Cl]  pIC50 (Raji; cell growth or viability, ATP luminescence; 72 h): 5.54
Nc1ncnc2c1ncn2[C@@H]1O[C@H](C[C@@H](N)CC[C@H](N)C(=O)O)[C@@H](O)[C@H]1O  inhibition (RNMT (Homo sapiens, UniProt O43148); enzyme activity, inhibitor; 200 µM): 95.2%
O=c1cc(N2CCOCC2)oc2c(-c3ccccc3)cccc12  inhibition (PIK3CG (Homo sapiens, UniProt P48736); enzyme activity, inhibitor, ADP detection; 10 µM): 78.9%
COc1cc(/C=C/C(=O)O)ccc1OCc1cn(CC(=O)Nc2cccc(C)c2)nn1  inhibition (PPO3 (Agaricus bisporus, UniProt C7FF04); enzyme activity, inhibitor; 40 µM): 13.5%
CC(C)CC(=O)OC[C@H]1O[C@@](C#N)(c2ccc3c(N)ncnn23)[C@H](O)[C@@H]1O  inhibition (NR3C1 (Homo sapiens, UniProt P04150); cell-free assay; 20 µM): -3%
CC(C)NCC(O)COc1cccc2ccccc12 (centres unmarked)  inhibition (Potassium/sodium hyperpolarization-activated cyclic nucleotide-gated channel 1; ion current, inhibitor; 10 µM): -4.84%
Cc1ccc(Cn2c(=S)[nH]c3ccc(Cl)cc3c2=O)cn1  pIC50 (4'-phosphopantetheinyl transferase PptT; enzyme activity, inhibitor, FP): 5.90
COc1ncccc1-c1cnn2ccc(N3CCN(C(=O)OC(C)C)CC3)nc12  remaining binding (VRK2 (Homo sapiens, UniProt Q86Y07); binding, competition with immobilised ligand; 1 µM): 99%
Cn1cc(-c2cccc(N3CCc4c(sc5c4CC(C)(C)C5)C3=O)c2CO)cc(Nc2ccncn2)c1=O  inhibition (CSNK2A1 (Homo sapiens, UniProt P68400); enzyme activity, inhibitor; 1 µM): 3%
CC(=O)Nc1ccc(O)cc1  inhibition (Potassium/sodium hyperpolarization-activated cyclic nucleotide-gated channel 1; ion current, inhibitor; 10 µM): 15%
Nc1ncc(-c2nc(N3CCOCC3)nc(N3CCOCC3)n2)c(C(F)F)n1  remaining binding (NEK11 (Homo sapiens, UniProt Q8NG66); binding, competition with immobilised ligand; 10 µM): 89%
Nc1ccncc1  inhibition (Potassium/sodium hyperpolarization-activated cyclic nucleotide-gated channel 1; ion current, inhibitor; 10 µM): -436%
C#Cc1n[nH]c2c(-c3cn([C@@H](C)c4ccccn4)c(=O)[nH]c3=O)cc(F)cc12  inhibition (PIK3C2A (Homo sapiens, UniProt O00443); enzyme activity, inhibitor; 0.1 µM): 10.5%
c1cncc([C@@H]2CCCN2)c1  inhibition (HTR1B (Homo sapiens, UniProt P28222); ligand displacement; 50 µM): 7.36%
CCCCC(=O)N(Cc1ccc(-c2ccccc2-c2nnn[nH]2)cc1)[C@H](C(=O)O)C(C)C  inhibition (SLC22A11 (Homo sapiens, UniProt Q9NSA0); transporter uptake, inhibitor; 25 µM): 50 to 90%
COc1cc(Nc2ncc(F)c(Nc3ccc4c(n3)NC(=O)C(C)(C)O4)n2)cc(OC)c1OC  inhibition (STK38 (Homo sapiens, UniProt Q15208); binding; 10 µM): 65%
CCC(CNc1nc(-c2cn3ccnc3cc2C)nc2ccccc12)c1ccccc1 (centres unmarked)  inhibition (SLC6A3 (Homo sapiens, UniProt Q01959); transporter uptake, inhibitor, radiometric; 10 µM): 40.2%
NC(=S)c1cncc(Cn2c(=S)[nH]c3ccc(Cl)cc3c2=O)c1  pIC50 (4'-phosphopantetheinyl transferase PptT; enzyme activity, inhibitor, FP): 6.80
[2H]c1c([2H])c([C@]2([2H])CCCN2C(=O)C(C)(C)Oc2ccc3cn[nH]c3c2)c([2H])c([2H])c1C([2H])([2H])[2H]  remaining binding (CLK4 (Homo sapiens, UniProt Q9HAZ1); binding, competition with immobilised ligand; 1 µM): 66%
O=C1NC(=O)C(c2ccccc2)(c2ccccc2)N1  inhibition (Potassium/sodium hyperpolarization-activated cyclic nucleotide-gated channel 1; ion current, inhibitor; 3 µM): -1.57%
Cc1nn(C)cc1-c1nc2c(N3CCN(Cc4ccc(Cl)cc4)CC3)c(Cl)cnc2[nH]1  remaining binding (SBK1 (Homo sapiens, UniProt Q52WX2); binding, competition with immobilised ligand; 1 µM): 80%
Cc1nnc(SCC2=C(C(=O)O)N3C(=O)[C@@H](NC(=O)Cn4cnnn4)[C@H]3SC2)s1  inhibition (Potassium/sodium hyperpolarization-activated cyclic nucleotide-gated channel 1; ion current, inhibitor; 30 µM): -3.71%
CC[C@H](C)[C@@H]([C@@H](CC(=O)N1CCC[C@H]1[C@H](OC)[C@@H](C)C(=O)N[C@H](C)[C@@H](O)c1ccccc1)OC)N(C)C(=O)[C@@H](NC(=O)[C@H](C(C)C)N(C)C(=O)OCc1ccc(NC(=O)[C@H](CCCNC(N)=O)NC(=O)[C@@H](NC(=O)CCCCCN2C(=O)CC(SCCC(=O)N[C@@H](Cc3cn(CCOCCNCCCCCCOc4cc(OCCCc5c(C)n[nH]c5C)cc(C(=O)O)c4)nn3)C(=O)NCCCCCC(=O)NCCCC[C@H](NC(=O)N[C@@H](CCC(=O)O)C(=O)O)C(=O)O)C2=O)C(C)C)cc1)C(C)C (some centres unmarked)  solubility (PBS; pH 7.4): ≥ 200 µM

Excerpt of the above:
N.N.[Cl][Pt][Cl]  pIC50 (Raji; cell growth or viability, ATP luminescence; 72 h): 5.54
C#Cc1n[nH]c2c(-c3cn([C@@H](C)c4ccccn4)c(=O)[nH]c3=O)cc(F)cc12  inhibition (PIK3C2A (Homo sapiens, UniProt O00443); enzyme activity, inhibitor; 0.1 µM): 10.5%
